Measured values of several laboratories.
Protocols differ between the studies behind these lines. “And” joins repeats or separate records; there may be more than shown. ± gives the spread as reported.

CC/C(=C(\c1ccccc1)c1ccc(OCCN(C)C)cc1)c1ccccc1  mean blood pressure (male Hartley guinea pigs, anaesthetized; intravenous, 10 mg/kg over 10 min, after infusion): 34 ± 0.3 mmHg
CCCOc1ccc([C@H]2CNC(=O)N2c2ccc3[nH]cnc3c2)cc1  effective half-life (human volunteers fed, plasma; oral tablet, 200 mg single dose, crossover, geometric mean): 2.2 h
CC(C)n1c(Nc2cccnc2)nc2cnc(Nc3ccc(N4CCN(C)CC4)cc3)nc21  subjects with adverse event (item: oral ulcers; healthy male subjects; oral, 100 mg, study, together with: gemfibrozil): 0%
Cn1c(C(F)(F)F)cc(=O)n(-c2cc(Oc3cccnc3OCC(=O)O)c(Cl)cc2F)c1=O  Tmax (beagle dog, female, plasma; oral capsule, 1000 mg/kg/day epyrifenacil, week 13, 90-day study): 3.5 h
COc1ccc2c(c1)CN(C(=O)CCN1CCC(Cc3ccccc3)CC1)CC[S@@+]2[O-]  systolic blood pressure (telemetry; conscious male beagle dogs; intravenous, 2 mg/kg, 0.5 h): 136 ± 7 mmHg
Cc1nccn1CC1CCc2c(c3ccccc3n2C)C1=O (stereo not shown)  C0 (male Sprague Dawley rat, plasma; iv bolus, 5 mg/kg, together with: tariquidar 15 mg/kg iv): 12900 ng/mL
O=C(O)c1c(O)c(-c2ccccc2)nc2ccccc12  pKa (acidic): 3.9
Cc1cc(-c2nccc3c2ccn3CC(=O)Nc2ccc(-c3cnccn3)cn2)ccn1  subjects with eye disorders TEAEs (human; MAD part, 20 mg once daily): 0%
Cc1c(Br)cc(NC(=O)CS(=O)(=O)O)cc1Br  C0 (CD-1 mice, whole blood; intravenous, 2 mg/kg): 10600 nM
CNC[C@H](O)[C@@H](O)[C@H](O)[C@H](O)CO.O=C([O-])CN1CCN(CC(=O)[O-])CCN(CC(=O)O)CCN(CC(=O)[O-])CC1.[Gd+3]  relaxivity r1 (fetal bovine serum; 20 °C, 1.0 T, non-self-assembled): 5 ± 0.07 mM⁻¹ s⁻¹
COc1ccc([C@@H](O)c2cc(-c3ncnc4cc(N5CCOCC5)ccc34)c(F)cc2Cl)nn1  constipation TEAE incidence (locally advanced rectal cancer patients; 50 mg, together with: capecitabine and radiotherapy): 0%
N=C(N)NCCNC(=O)C1(Nc2ccccc2)CCN(Cc2ccccc2)CC1  C0 (Sprague-Dawley rats (female), plasma; intravenous, 2.5 mg/kg): 9060 ± 1000 ng/mL
Nc1ncnc2c1ncn2[C@@H]1O[C@H](CO)C[C@H]1O  cytotoxicity (LDH release; human ESC-derived lung organoids; concentration not given, 2 days): 8.56% and 7.33% and 9.68%
COc1cc(C(=O)N2CCC3(CC2)CC(=O)c2c(cnn2C(C)C)C3)cc(-c2ccc(C(=O)O)cc2)n1  placebo-adjusted change from baseline (item: HDL cholesterol; human, fasting serum; 10 mg every 12 h, day 13, adjusted geometric mean; relative to: baseline and placebo): -5.8%
COc1cc2[nH]c(C)c(-c3ccc(C(=O)O)cc3)c(=O)c2cc1Cl  Papp (PAMPA; pH 7.4): < 5 ×10⁻⁶ cm/s
O=C(Cc1ccc(OC(F)(F)F)cc1)Nc1cc(C2CC2)[nH]n1  pKa: 3.68
Cn1cncc1-c1c(F)cncc1NC(=O)c1c(N)nn2cc(F)cnc12  elimination rate constant k10 (two-compartment PK-TGI model; xenograft-bearing mice, plasma): 0.74 h⁻¹
CC(C)[C@@H](CS(=O)(=O)C(C)C)N1C(=O)[C@@](C)(CC(=O)O)C[C@H](c2cccc(Cl)c2)[C@H]1c1ccc(Cl)cc1  AUC(0-inf) (FVB mice Abcb1a/b knockout, plasma; intravenous, 20 mg/kg): 37100 ± 2780 ng·h/mL
O=C(Nc1nc2cccc(-c3ccc(CN4CCS(=O)(=O)CC4)cc3)n2n1)C1CC1  treatment-emergent adverse events (item: arthropod sting allergy; rheumatoid arthritis patients; oral, 150 mg once daily, 4 weeks, any relatedness): 0%
C=CC1(C)CC(OC(=O)CSc2nc3ccccc3s2)C2(C)C(C)CCC3(CCC(=O)C32)C(C)C1O (stereo not shown)  maximum haemolysis (sheep erythrocytes; 1 h, pH 7.5): 2.85%
CNC(=O)c1ccc(-c2cnc3ncc(Cc4ccc5ncccc5c4)n3n2)cc1F  patients with adverse event (item: Constipation, all grades; cancer patients; oral, 600 mg twice daily, expansion cohort, any causality): 18%
C[C@@H]1COCCN1c1cc(C2([S@](C)(=N)=O)CC2)nc(-c2cc[nH]c3nccc2-3)n1  Anemia incidence (Japanese advanced solid tumour patients; oral, 160 mg twice daily, CTCAE grade ≥3): 16.7%
Cc1nc2ccc(OCc3ccc(C(F)(F)F)cc3)cc2[nH]1  Vz/F (Balb/c mice, male, plasma; intravenous, 1 mg/kg): 2.29 ± 0.2 L/kg
CN[C@@H]1COc2c(S(=O)(=O)NC(=O)Nc3c4c(cc5c3CCC5)CCC4)cnn2C1  ALT (human, serum; oral, 900 mg twice daily, day 20, together with: midazolam): 351 U/L
O=C1CCc2ccc(OCCCCN3CCN(c4cccc(Cl)c4Cl)CC3)cc2N1  adverse event incidence (item: Xerostomia; genotyped patients, CYP2D6 normal metabolizers; dose not given, long-acting oral or depot): 7.3%
O=C1Cc2cc(CCN3CCN(c4nsc5ccccc45)CC3)c(Cl)cc2N1  mean blood pressure (male Hartley guinea pigs, anaesthetized; intravenous, 0.1 mg/kg group, baseline before infusion): 35 ± 0.2 mmHg
CC(C)(C(=O)N1CCOc2c(C#N)cncc2C1)C(F)F  subjects with TEAE (item: tandem gait test abnormal; human, both sexes; oral, 15 mg twice daily, 14 days, multiple ascending dose): 0%
CCc1c(-c2ccccc2)c(-c2ccccc2)nn1-c1ccccc1-c1cccc(OCC(=O)O)c1  C0 (Sprague-Dawley rat; intravenous, dose not given): 13000 ng/mL and 15900 ng/mL and 15100 ng/mL
C=CCn1c(=O)c2cnc(Nc3ccc(N4CCN(C)CC4)cc3)nc2n1-c1cccc(C(C)(C)O)n1  pharmacokinetics (human cancer patients, plasma; together with: durvalumab co-administration; relative to: monotherapy lead-in): no effect
N#Cc1ccc2c(c1)[C@H]1CCCN(C(=O)c3ccc4[nH]cnc4c3)[C@H]1C2  total testosterone level (human males; 240 mg, day 7): 15.6 nmol/L
COc1ccc2c3c1O[C@H]1C[C@@H](OC(=O)c4ccccc4)C=C[C@@]31CCN(C)C2  brain-to-blood AUClast ratio (Swiss albino mouse; intravenous, 3.0 mg/kg; relative to: brain over blood): 19.6
COc1cccc(OC)c1-c1cc(C(=O)NC2(C(=O)O)C3CC4CC(C3)CC2C4)nn1-c1ccc(C(=O)N(C)CCCN(C)CCCN(C)C(=O)CN2CCN(CC(=O)[O-])CCN(CC(=O)[O-])CCN(CC(=O)[O-])CC2)cc1C(C)C.[177Lu+3] (stereo not shown)  tissue uptake (mouse, HT-29 xenograft, lung; 72 h post injection): 0.16 %ID/g
O=S(=O)(c1ccc(-c2ccc3nccc(Nc4ccncn4)c3c2)cc1)N1CCOCC1  brain concentration (female BALB/c mice, brain; intraperitoneal, 10 mg/kg, 24 h, mean, below LLOQ as zero): 0 ng/mL
COc1cc2c3c(n(CCCN4CCOCC4)c(=O)c2cc1OC)-c1cc2c(cc1C3=O)OCO2  CL (beagle dog, female, plasma; intravenous infusion, 215 mg/m^2, 1 h infusion): 20.2 L/h/m² and 20.8 L/h/m²
O=C(CCCN1CCC(O)(c2ccc(Cl)cc2)CC1)c1ccc(F)cc1  mean blood pressure (male Hartley guinea pigs, anaesthetized; intravenous, 1 mg/kg group, baseline before infusion): 34 ± 0.1 mmHg
Cn1cc([C@H]2C[C@H]3CSC(N)=N[C@@]3(c3ccc(F)cc3F)CO2)cn1  brain concentration (male 129/SVE mouse, brain; subcutaneous, 50 mg/kg, 13 h): 952 nM
Cc1nc2cccc(OCC(C)(C)C(=O)NC(C)C)c2c(N)c1C(=O)O  Cmax ratio (Sprague-Dawley rat, male, plasma; oral, 10 mg/kg, day 7 over day 1, 7-day repeated dosing; relative to: day 7 over day 1): 1.26 ± 0.42
COc1ccc(C[C@@H](C)[C@@H](C)Cc2ccc(OC)c(OC)c2)cc1OC  Tmax (beagle dog male, plasma; oral, 300 mg/kg/day, day 28, median): 1 h
CCn1c(=O)c(-c2cc(NC(=O)Nc3ccccc3)c(F)cc2Br)cc2cnc(NC)cc21  mid-term stability accuracy (human plasma; 4000 ng/mL, 1 weeks, 4 °C, high QC): 3.41%
O=C(O)CNC(=O)c1ncccc1O  pKa (basic): < 2
FC(F)(F)c1ccc(CNc2ccc(Cc3c[nH]c4ncc(Cl)cc34)cn2)cn1  treatment-related adverse events (item: peripheral oedema; human, advanced solid tumours, non-TGCT cohort; oral, 1000 mg/day, grade 3 or higher): 0%
Nc1ncnc2c1ncn2[C@H]1C[C@@H]2OP(=O)(O)OC[C@H]3O[C@@H](n4cnc5c(N)ncnc54)C[C@@H]3OP(=O)(O)OC[C@H]2O1  amylase (non-tumor-bearing mice, serum; intravenous, 1 mg/kg, toxicity study): 805 ± 43.1 U/L
O=C(N/N=C/c1ccccc1O)c1ccncc1  stability (rat plasma; 3 µM, 7 days, -80 °C, long-term storage): 95.8%
CCC(CC)C(=O)Oc1cccc(C(O)CCN)c1.O=CO (stereo not shown)  ERG b-wave amplitude (scotopic ERG; BALB/cJ mice; intraperitoneal, 10 mg/kg, 2 h dark adaptation, together with: 10,000 lx photobleach, 10 min): 166 µV and 133 µV and 98 µV and 143 µV and 154 µV and 22 µV
Cn1cc(-c2cn3nccc3c(-c3cnn([C@]4(CC#N)C[C@@H](C#N)C4)c3)n2)cn1  mean residence time (healthy humans fasted, plasma; 3 mg single dose, geometric mean): 5.6 h
COc1nc(-c2cc(C)c(N[C@@H](C)c3cc(F)cc(F)c3)nn2)ccc1-n1cnc(C)c1  concentration (rat Sprague-Dawley male, plasma; oral, 25 mg/kg daily for 9 days, 4 h after dose): 13400 ng/mL
O=C(O)CCCOc1ccc([18F])cc1-c1cc(-c2ccccc2C(F)(F)F)n(-c2ccccc2)n1  radioactivity uptake (gamma counting; male ddY mice, liver; intravenous, 2.1 MBq, 60 min): 0.79 ± 0.15 SUV
CNCCOC12CC3(C)CC(C)(CC(Cn4ncc(-c5ccc(N6CCc7cccc(C(=O)Nc8nc9ccccc9s8)c7C6)nc5C(=O)O)c4C)(C3)C1)C2  QTcV interval change (beagle dog, male, anaesthetised; intravenous bolus, 0.03 mg/kg, 30 min; relative to: baseline): 15 ms
C[C@@H](N)C1CCN(S(=O)(=O)c2cccc3cnccc23)CC1  participants with headache (healthy volunteers; 75 mg, fasted): 0%
Cc1cc(Nc2cc3ncccc3c(N[C@@H]3C[C@H]4CC[C@@H](C3)N4CCC#N)n2)n[nH]1  papular rash incidence (healthy human subjects; oral, 100 mg, 2 weeks, single ascending dose): 0%
CC(C)=CCC1=C(O)C(=O)c2ccccc2C1=O  anodic peak potential (cyclic voltammetry; CH2Cl2; 0.1 mM, together with: 0.1 M Bu4NPF6; relative to: Ag/AgCl (sat. KOH)): -1.44 V
CCCCNC(=O)NS(=O)(=O)c1cccs1  maximum haemolysis (sheep erythrocytes; 1 h, pH 7.5): 7.4%
C[C@H]1CNC(=O)c2cnn3ccc(nc23)N[C@H](C)c2cc(F)ccc2O1  unbound concentration (Balb/c nude mice, female, brain; oral, 15 mg/kg twice daily, 1 h, steady state): 3.1 ± 0.7 nM
CCN1/C(=C/C(C)=O)Sc2ccc(F)cc21  heart rate (cynomolgus monkey; oral, 30 mg/kg, 0.5 h post-dose): 127 ± 16 beats/min
CC(C)c1nc(N(C)S(C)(=O)=O)nc(-c2ccc(F)cc2)c1/C=C/[C@@H](O)C[C@@H](O)CC(=O)O  Tlast (human, plasma; oral, 10 mg, median, range, alone): 72 h
CCOC(=O)c1cc(Cl)cc(NC(=O)c2sc(Cl)cc2S(=O)(=O)N(C)c2ccc(OCC)c(OC)c2)c1  AUC extrapolated fraction (male C57BL/6 mice, brain; intraperitoneal, 10 mg/kg): 56.5%
Cc1cc(C(=O)NC(C)(C)COc2cccc3c2C(N)=NS(=O)(=O)N3)cc(C)n1  plasma peak area (LC-MS metabolite profiling; Sprague-Dawley rat, both sexes, plasma; oral, 100 mg/kg of parent drug, 1 (unit not given); higher = more metabolite): 1.02e+06 a.u.
C[C@@H]1CN(c2c(F)c(N)c3c(=O)c(C(=O)O)cn(C4CC4)c3c2F)C[C@H](C)N1  mean blood pressure (male Hartley guinea pigs, anaesthetized; intravenous, 30 mg/kg over 10 min, after infusion): 33 ± 0.2 mmHg

Excerpt of the above:
O=C(O)CNC(=O)c1ncccc1O  pKa (basic): < 2
FC(F)(F)c1ccc(CNc2ccc(Cc3c[nH]c4ncc(Cl)cc34)cn2)cn1  treatment-related adverse events (item: peripheral oedema; human, advanced solid tumours, non-TGCT cohort; oral, 1000 mg/day, grade 3 or higher): 0%
Nc1ncnc2c1ncn2[C@H]1C[C@@H]2OP(=O)(O)OC[C@H]3O[C@@H](n4cnc5c(N)ncnc54)C[C@@H]3OP(=O)(O)OC[C@H]2O1  amylase (non-tumor-bearing mice, serum; intravenous, 1 mg/kg, toxicity study): 805 ± 43.1 U/L
O=C(N/N=C/c1ccccc1O)c1ccncc1  stability (rat plasma; 3 µM, 7 days, -80 °C, long-term storage): 95.8%
